Measurements pooled from the literature.
A part holds a random share of what one study measured. “And” joins repeats or separate records; there may be more than shown.
UniProt Q14680, sequence (whole entry, looked up): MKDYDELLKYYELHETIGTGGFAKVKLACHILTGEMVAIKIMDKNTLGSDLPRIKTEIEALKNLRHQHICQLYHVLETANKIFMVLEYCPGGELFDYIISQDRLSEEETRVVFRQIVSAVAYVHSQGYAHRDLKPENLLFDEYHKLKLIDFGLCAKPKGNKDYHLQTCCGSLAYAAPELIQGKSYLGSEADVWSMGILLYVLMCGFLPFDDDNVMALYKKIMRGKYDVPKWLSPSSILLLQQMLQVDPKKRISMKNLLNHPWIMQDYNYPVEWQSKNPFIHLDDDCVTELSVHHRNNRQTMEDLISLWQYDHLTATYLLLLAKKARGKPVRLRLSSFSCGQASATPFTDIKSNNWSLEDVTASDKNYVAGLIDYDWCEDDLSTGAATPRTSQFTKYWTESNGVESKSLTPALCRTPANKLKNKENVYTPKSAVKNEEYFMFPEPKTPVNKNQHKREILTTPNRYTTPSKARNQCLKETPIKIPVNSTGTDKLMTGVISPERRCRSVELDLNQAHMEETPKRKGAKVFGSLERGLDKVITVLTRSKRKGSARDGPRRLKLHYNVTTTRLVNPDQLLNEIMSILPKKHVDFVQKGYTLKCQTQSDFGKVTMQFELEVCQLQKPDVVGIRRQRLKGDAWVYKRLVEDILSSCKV
UniProt Q96SB4, sequence (whole entry, looked up): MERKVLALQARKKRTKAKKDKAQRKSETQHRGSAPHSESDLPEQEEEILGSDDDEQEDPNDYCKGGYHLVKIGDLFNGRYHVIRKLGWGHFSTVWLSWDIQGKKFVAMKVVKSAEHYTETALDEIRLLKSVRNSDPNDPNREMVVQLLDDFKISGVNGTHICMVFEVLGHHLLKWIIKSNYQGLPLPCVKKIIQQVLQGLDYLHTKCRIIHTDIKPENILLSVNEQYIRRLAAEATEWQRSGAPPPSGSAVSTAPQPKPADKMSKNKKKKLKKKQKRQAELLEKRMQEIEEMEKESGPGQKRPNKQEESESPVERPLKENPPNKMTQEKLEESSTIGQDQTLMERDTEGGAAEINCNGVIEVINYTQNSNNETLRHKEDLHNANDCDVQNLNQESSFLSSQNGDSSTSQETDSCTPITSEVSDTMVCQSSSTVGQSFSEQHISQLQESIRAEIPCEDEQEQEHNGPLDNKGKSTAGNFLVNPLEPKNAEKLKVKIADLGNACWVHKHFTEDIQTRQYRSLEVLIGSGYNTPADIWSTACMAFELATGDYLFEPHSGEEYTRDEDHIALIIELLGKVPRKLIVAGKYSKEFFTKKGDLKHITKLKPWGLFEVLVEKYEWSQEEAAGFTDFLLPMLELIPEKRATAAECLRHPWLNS
UniProt P37023, sequence (whole entry, looked up): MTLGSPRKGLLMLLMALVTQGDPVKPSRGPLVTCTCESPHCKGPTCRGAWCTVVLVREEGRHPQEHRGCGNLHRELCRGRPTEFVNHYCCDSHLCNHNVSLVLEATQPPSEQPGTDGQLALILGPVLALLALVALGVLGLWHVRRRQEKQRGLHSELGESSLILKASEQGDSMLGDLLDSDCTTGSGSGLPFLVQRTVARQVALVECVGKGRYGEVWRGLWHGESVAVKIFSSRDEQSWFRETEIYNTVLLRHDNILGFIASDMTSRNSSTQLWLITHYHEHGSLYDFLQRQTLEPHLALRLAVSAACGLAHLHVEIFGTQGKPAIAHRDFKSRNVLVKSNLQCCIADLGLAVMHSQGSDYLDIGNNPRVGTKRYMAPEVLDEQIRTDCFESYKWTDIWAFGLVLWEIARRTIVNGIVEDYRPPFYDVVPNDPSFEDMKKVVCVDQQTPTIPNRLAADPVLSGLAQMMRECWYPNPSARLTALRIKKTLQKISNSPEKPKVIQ
UniProt Q06418, sequence (whole entry, looked up): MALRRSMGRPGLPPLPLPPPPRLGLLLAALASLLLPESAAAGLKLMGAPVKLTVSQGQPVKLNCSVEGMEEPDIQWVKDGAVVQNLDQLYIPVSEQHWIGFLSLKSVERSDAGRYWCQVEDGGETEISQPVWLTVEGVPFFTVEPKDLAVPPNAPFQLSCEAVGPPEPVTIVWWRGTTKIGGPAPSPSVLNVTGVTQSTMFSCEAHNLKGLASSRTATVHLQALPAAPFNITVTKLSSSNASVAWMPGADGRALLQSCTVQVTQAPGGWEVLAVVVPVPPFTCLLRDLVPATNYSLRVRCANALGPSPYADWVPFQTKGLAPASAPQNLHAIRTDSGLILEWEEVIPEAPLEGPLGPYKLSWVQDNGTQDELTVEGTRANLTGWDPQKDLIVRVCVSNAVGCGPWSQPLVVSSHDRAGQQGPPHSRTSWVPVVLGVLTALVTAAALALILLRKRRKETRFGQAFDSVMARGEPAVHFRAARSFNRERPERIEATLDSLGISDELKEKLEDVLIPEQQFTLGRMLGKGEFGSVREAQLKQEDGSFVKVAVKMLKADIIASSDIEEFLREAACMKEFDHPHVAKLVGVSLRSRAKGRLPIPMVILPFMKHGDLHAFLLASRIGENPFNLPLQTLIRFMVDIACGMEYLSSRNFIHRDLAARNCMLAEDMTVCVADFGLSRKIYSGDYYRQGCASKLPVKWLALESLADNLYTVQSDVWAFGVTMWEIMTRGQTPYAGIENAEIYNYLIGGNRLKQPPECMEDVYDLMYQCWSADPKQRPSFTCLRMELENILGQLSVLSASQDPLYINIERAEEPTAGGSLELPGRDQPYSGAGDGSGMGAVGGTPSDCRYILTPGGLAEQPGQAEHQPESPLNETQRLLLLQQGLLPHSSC
UniProt Q9P0L2, sequence (whole entry, looked up): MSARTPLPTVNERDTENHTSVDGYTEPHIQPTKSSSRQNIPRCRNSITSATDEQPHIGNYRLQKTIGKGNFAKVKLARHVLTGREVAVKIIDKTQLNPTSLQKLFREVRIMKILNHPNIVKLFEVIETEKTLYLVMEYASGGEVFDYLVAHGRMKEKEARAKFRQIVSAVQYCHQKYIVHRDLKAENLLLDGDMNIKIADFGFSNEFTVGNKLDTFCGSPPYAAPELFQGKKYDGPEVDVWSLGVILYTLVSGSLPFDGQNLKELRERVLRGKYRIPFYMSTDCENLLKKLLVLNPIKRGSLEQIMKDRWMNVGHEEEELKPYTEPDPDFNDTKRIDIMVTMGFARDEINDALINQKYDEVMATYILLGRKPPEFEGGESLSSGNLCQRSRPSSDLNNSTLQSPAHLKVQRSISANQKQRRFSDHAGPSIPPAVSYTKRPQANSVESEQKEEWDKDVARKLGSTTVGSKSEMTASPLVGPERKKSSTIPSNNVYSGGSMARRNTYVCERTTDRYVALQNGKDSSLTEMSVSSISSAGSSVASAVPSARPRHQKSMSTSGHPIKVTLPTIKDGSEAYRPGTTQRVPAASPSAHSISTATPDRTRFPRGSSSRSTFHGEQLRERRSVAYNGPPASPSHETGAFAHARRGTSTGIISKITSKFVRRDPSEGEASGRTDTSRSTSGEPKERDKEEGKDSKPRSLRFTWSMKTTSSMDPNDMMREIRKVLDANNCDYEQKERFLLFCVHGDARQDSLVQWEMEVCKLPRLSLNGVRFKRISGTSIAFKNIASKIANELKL
UniProt P29317, sequence (whole entry, looked up): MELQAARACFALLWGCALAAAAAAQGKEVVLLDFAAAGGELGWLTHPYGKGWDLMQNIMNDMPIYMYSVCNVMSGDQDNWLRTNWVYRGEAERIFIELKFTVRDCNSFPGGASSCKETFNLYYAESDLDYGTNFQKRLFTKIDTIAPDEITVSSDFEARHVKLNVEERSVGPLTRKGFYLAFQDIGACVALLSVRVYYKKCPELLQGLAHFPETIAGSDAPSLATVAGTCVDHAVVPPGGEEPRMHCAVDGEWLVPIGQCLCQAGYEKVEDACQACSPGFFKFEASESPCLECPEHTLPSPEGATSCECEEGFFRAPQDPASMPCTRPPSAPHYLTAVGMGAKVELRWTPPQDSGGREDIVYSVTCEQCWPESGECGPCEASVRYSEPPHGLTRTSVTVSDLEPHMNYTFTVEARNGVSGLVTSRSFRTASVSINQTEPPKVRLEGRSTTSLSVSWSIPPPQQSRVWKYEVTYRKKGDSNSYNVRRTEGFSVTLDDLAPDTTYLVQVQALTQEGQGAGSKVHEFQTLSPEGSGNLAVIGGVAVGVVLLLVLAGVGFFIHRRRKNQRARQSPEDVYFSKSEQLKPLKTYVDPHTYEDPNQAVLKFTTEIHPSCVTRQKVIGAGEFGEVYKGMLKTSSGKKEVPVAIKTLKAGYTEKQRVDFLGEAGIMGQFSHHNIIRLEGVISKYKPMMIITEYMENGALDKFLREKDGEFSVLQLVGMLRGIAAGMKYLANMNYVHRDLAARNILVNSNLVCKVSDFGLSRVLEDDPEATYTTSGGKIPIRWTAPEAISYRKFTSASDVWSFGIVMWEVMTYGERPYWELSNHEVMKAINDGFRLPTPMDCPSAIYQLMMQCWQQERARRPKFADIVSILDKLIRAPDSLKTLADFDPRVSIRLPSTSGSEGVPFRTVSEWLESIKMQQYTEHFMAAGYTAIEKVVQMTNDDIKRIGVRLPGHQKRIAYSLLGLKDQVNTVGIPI
UniProt P49674, sequence (whole entry, looked up): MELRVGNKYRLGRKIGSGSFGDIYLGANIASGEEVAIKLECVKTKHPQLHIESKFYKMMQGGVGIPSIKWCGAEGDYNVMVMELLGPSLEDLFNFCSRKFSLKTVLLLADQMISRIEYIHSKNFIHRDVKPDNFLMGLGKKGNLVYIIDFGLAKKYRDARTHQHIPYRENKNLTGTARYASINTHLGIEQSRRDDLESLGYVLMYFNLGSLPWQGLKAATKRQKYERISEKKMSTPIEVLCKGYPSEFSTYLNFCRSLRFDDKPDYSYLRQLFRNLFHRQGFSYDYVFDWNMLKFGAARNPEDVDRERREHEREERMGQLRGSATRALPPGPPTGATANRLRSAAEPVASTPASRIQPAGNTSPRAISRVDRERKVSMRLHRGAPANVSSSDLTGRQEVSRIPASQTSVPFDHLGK

Study 1
Host: human
Matrix: microsomes or S9
Tested at: 2 µM
Time: 0.5 h
SMILES	remaining compound
COC[C@@H]1[C@@H](NC(=O)c2c(OC)cc(=O)n3c2CCNCC3)[C@@H]2CCO[C@H]12	> 99%
CCC[C@@H]1CN(c2ncnc3sccc23)C[C@H]1C(=O)O	39.9%
CCC(c1ccc(F)cc1)S(=O)(=O)c1ncc(CO)n1C (stereo not shown)	> 100%
COc1cccc([C@@H]2CN(C(=O)C3CC(=O)Nc4ccccc43)C[C@]23CCCCC(=O)N3)c1 (stereo partly shown)	56%
Cc1nc2ncnn2c(C)c1CCC(=O)OC1(C)CCC(C)(C)CC1	95.4%

Study 2
Structure (SMILES): c1ccc2c(-c3nn4c(-c5ccncc5)nnc4s3)c[nH]c2c1
Cell line: HEK293T ATF4-firefly luciferase reporter
Observed: integrated stress response
Refers to: ATF4
Reference: DMSO
tested at	setting	together with	reporter signal
10 µM		ISRIB	87% and 93.9% and 91.2% and 97.5% and 108% and 117% and 105%
10 µM	without ISRIB		196% and 192% and 180% and 173% and 240% and 155% and 205%
1 µM		ISRIB	95.9% and 95.3% and 77.7% and 90.2% and 71.6% and 77.9% and 80.4% and 78%

Study 3
Compound: Nc1[nH]nc2nnc(-c3c(-c4ccccc4)nn4ccccc34)cc12
Observed: enzyme activity
Mode: inhibitor
Tested at: 0.5 µM
Reference: control
target	remaining activity [%]
Tyrosine-protein kinase JAK2 (JAK2, Homo sapiens, UniProt O60674)	97.1
Dual specificity tyrosine-phosphorylation-regulated kinase 1A (DYRK1A, Homo sapiens, UniProt Q13627)	102
Tyrosine-protein kinase Tec (TEC, Homo sapiens, UniProt P42680)	96.1
Ribosomal protein S6 kinase alpha-3 (RPS6KA3, Homo sapiens, UniProt P51812)	98.7
Serine/threonine-protein kinase PAK 6 (PAK6, Homo sapiens, UniProt Q9NQU5)	96.4
Dual specificity protein kinase CLK2 (CLK2, Homo sapiens, UniProt P49760)	94.9
Ephrin type-A receptor 2 (EPHA2, Homo sapiens, UniProt P29317)	98.3
Protein kinase C theta type (PRKCQ, Homo sapiens, UniProt Q04759)	79.9
Receptor tyrosine-protein kinase erbB-2 (ERBB2, Homo sapiens, UniProt P04626)	105
Serine/threonine-protein kinase MARK1 (MARK1, Homo sapiens, UniProt Q9P0L2)	98
Casein kinase I isoform delta (CSNK1D, Homo sapiens, UniProt P48730)	63.2
Mitogen-activated protein kinase kinase kinase 20 (MAP3K20, Homo sapiens, UniProt Q9NYL2)	101
Tyrosine-protein kinase Yes (YES1, Homo sapiens, UniProt P07947)	91.1
Activin receptor type-1-like (ACVRL1, Homo sapiens, UniProt P37023)	106
SRSF protein kinase 1 (SRPK1, Homo sapiens, UniProt Q96SB4)	83.7
Vascular endothelial growth factor receptor 1 (FLT1, Homo sapiens, UniProt P17948)	96.7
Protein kinase C zeta type (PRKCZ, Homo sapiens, UniProt Q05513)	83.9
Tyrosine-protein kinase JAK1 (JAK1, Homo sapiens, UniProt P23458)	104
Casein kinase I isoform epsilon (CSNK1E, Homo sapiens, UniProt P49674)	80.9
Dual specificity protein kinase CLK1 (CLK1, Homo sapiens, UniProt P49759)	108
Serine/threonine-protein kinase PAK 4 (PAK4, Homo sapiens, UniProt O96013)	101
Muscle, skeletal receptor tyrosine-protein kinase (MUSK, Homo sapiens, UniProt O15146)	96.8
Maternal embryonic leucine zipper kinase (MELK, Homo sapiens, UniProt Q14680)	102
Serine/threonine-protein kinase pim-1 (PIM1, Homo sapiens, UniProt P11309)	100
Tyrosine-protein kinase receptor TYRO3 (TYRO3, Homo sapiens, UniProt Q06418)	97.6

Study 4
Cell line: normal-adjacent organoid sample E
Technique: CellTiter-Glo
Tested at: 0.1 µM
Setting: replicate mean
Reference: DMSO
SMILES	viability
O=C(NCCCC1CCCCC1)c1ccc(CNC(=O)c2cnn(-c3ccccc3)c2C(F)(F)F)cc1	114%
COc1cccc(CNC(=O)c2nc3scc(COCc4ccc(C(=O)O)cc4)c3c(=O)[nH]2)c1	118%
CN1C(=O)[C@@H](N2CCc3cn(Cc4ccccc4)nc3C2=O)COc2ccccc21	112%
CCCOc1ccc([C@@H]2[C@@H](C(=O)O)[C@H](c3ccc4c(c3)OCO4)CN2CC(=O)Nc2c(CC)cccc2CC)cc1	111%
O=C(Nc1ccc(-n2nc(-c3cccnc3)cc2C(F)(F)F)cn1)c1ccc(-c2ccccc2)c(F)c1	115%
CCCCN(CCCC)C(=O)CN1C[C@H](c2cc(OC)c3c(c2)OCO3)[C@@H](C(=O)O)[C@@H]1CC(C)(C)CCC	104%
O=C(c1ccc(F)cc1)N1CC(COc2ccc(Br)cc2)(C(=O)O)C1	96.8%
Cc1cc(C)c(-n2ccn3nc(-c4cccnc4)cc23)cc1NC(=O)c1cc(C#N)cc(S(F)(F)(F)(F)F)c1	106%
N#Cc1ccc(Nc2ccc3[nH]c(=O)[nH]c3c2)c(Cl)c1	114%

Study 5
Cell line: HaCaT
Tested at: 100 µM
Time: 60 h
Structure (SMILES)	viability
CN1CCN(c2c(F)cc3c(=O)c(C(=O)O)cn4c3c2OCN4C)CC1	127%
OCc1ccc(O[C@@H]2O[C@H](CO)[C@@H](O)[C@H](O)[C@H]2O)cc1	139%
CC(=O)O[C@H]1CC[C@@]2(C)C(=CC[C@@H]3[C@@H]2CC[C@]2(C)C(c4cccnc4)=CC[C@@H]32)C1	19.5%
O=C(O)[C@H](O)[C@@H](O)[C@H](O)[C@H](O)CO	126%

Study 6
SMILES: O=C(COc1ccccc1P(=O)(O)O)NCC(F)(F)c1cccc(F)c1
Cell line: human islets
Technique: qPCR
Tested at: concentration not given
Setting: unit not given
Reference: low glucose control
refers to	together with	mRNA level
ALDH1A3	glucolipotoxic conditions	7.72 and 3.77 and 2.87 and 5.2
RELA	high glucose (20 mM)	0.896 and 1.12 and 1.15 and 0.934
PIN1	high glucose (20 mM)	1.15 and 0.953 and 1.03 and 0.806

Mixed results
SMILES	target or system	assay	system	conditions	scale	measurement	value
Cc1[nH]nc2ccc(-c3cncc(OC[C@@H](N)Cc4ccccc4)c3)cc12	HH	CCK-8		2 µM, 48 h	reference: untreated control	log10 relative viability	-0.805
CCOC(=O)[C@@H]1CSCC(=O)N[C@H](CC)C(=O)N(C)[C@@H](C)C(=O)N[C@@H](CC(C)C)C(=O)N2CCC[C@@H]2C(=O)N(CC(C)C)CC(=O)N[C@@H](CC(C)C)C(=O)N(C)[C@H](C)C(=O)N[C@@H](CC(C)C)C(=O)N1C			hydrocarbon/water			logD	1.44
CCOC(=O)c1cnc2ccc(-c3cncc(NS(=O)(=O)c4ccccc4)c3)cn12	HH	CCK-8		2 µM, 48 h	reference: untreated control	log10 relative viability	-0.627

Excerpt of the above (study 5):
Structure (SMILES)	viability
CN1CCN(c2c(F)cc3c(=O)c(C(=O)O)cn4c3c2OCN4C)CC1	127%
OCc1ccc(O[C@@H]2O[C@H](CO)[C@@H](O)[C@H](O)[C@H]2O)cc1	139%
O=C(O)[C@H](O)[C@@H](O)[C@H](O)[C@H](O)CO	126%
CC(=O)O[C@H]1CC[C@@]2(C)C(=CC[C@@H]3[C@@H]2CC[C@]2(C)C(c4cccnc4)=CC[C@@H]32)C1	19.5%
